Measured values gathered from unrelated publications.
Numbered parts are unrelated; each lists some results of a single study. Substitutions count along the parent as printed.

Block 1
Target: Sal-like protein 4, full length isoform A (SALL4, Homo sapiens, UniProt Q9UJQ4, residues 1-1053)
Chain of UniProt Q9UJQ4 (whole entry, looked up): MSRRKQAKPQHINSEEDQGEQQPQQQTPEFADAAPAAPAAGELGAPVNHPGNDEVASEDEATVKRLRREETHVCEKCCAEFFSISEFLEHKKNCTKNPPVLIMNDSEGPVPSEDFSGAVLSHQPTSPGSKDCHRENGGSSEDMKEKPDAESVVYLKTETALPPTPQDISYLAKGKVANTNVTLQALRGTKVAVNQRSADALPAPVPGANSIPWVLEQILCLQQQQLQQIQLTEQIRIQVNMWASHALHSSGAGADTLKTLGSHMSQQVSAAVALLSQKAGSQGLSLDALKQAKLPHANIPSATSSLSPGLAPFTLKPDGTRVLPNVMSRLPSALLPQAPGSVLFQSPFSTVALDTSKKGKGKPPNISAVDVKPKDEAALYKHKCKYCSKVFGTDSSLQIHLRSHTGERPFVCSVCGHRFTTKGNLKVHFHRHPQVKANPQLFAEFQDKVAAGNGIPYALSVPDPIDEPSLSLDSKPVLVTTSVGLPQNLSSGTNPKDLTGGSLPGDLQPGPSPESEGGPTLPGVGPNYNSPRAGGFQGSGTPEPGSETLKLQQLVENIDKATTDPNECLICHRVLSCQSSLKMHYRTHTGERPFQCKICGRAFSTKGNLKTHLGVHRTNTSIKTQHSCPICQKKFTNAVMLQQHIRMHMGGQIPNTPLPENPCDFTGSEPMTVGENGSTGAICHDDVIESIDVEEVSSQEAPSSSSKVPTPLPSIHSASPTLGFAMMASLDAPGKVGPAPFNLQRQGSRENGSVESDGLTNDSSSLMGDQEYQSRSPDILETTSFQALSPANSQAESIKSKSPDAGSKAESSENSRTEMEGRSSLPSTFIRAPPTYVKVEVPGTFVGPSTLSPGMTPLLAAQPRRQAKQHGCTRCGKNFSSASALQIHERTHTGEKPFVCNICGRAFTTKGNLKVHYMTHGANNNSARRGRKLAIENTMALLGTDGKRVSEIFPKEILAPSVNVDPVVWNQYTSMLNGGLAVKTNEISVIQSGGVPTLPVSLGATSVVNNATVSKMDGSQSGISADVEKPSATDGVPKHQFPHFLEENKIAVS
Technique: universal PBM
Molecule type: double-stranded DNA, one strand shown
Sample: in vitro
Tested at: 600 nM
Setting: 8-mer, flanks averaged, mean of replicates
Reading: higher = stronger binding
| Strand | E-score |
| --- | --- |
| AATGTGCA | 0.216 |
| GAAACCGC | -0.129 |
| CCTGAACG | -0.1 |
| CATCCAGA | -0.0813 |
| GATCGGGC | -0.334 |
| GCTCATAA | 0.199 |
| GATTAGCC | -0.0611 |

Block 2
Target: Phosphate system positive regulatory protein PHO4, full length, GST-tagged (PHO4, Saccharomyces cerevisiae, UniProt P07270, residues 1-312)
Technique: competition protein-binding microarray
Molecule type: double-stranded DNA, one strand shown
Sample: in vitro
Tested at: 2 µM
Setting: whole 60-bp probe, lowest competitor level
Together with: Cbf1 competitor, 0.05 µM
Reading: higher = stronger binding
All sequences stand within: … GTCTTGATTCGCTTGACGCTGCTG
Residues (chain): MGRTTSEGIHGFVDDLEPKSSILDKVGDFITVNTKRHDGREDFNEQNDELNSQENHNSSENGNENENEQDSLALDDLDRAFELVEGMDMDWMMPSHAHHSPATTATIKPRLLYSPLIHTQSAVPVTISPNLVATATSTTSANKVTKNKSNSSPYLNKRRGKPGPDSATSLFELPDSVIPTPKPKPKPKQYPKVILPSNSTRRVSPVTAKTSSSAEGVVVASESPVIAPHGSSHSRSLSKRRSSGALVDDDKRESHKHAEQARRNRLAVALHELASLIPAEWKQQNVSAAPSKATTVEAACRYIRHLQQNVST
| Strand | fluorescence intensity [a.u.] |
| --- | --- |
| AATCAGCTTATTCAGCTCGTGGAAGGTTGTCCAGTC | 7910 |
| ATCGTAAATAAAACACACGTGCTTTCCCTACCACTT | 18700 |
| CCAAGCCTGTAAATCGGTGTGACGGACACCAGAATA | 3100 |
| CATACCCAACCTTGTAATGTGGGTGAAGATATTTGT | 4460 |
| TGACCGCTCCACCGGCATGCGTGTAGTCATCCCGCA | 8060 |
| CGTCCTAGCGATTGAGCCGTGGGTGCCATGAGGAAG | 6660 |

Block 3
Target: CCND3, cyclin fold, Cln2 fusion (human)
Technique: yeast growth competition, sequencing
Sample: yeast
Setting: weak parent motif
Baseline: not given
Reading: higher = stronger binding
Starting sequence: CDC42EP1 docking peptide (human); SLVVGKLSFDSSP
| Variant | normalised enrichment score |
| --- | --- |
| SLAVGKLSFDSSP [V3A] | -0.277 |
| SLVVGKLSFDSSA [P13A] | -0.0369 |
| ALVVGKLSFDSSP [S1A] | -0.0413 |

Further values, each from its own experiment
| Molecule | target | assay | system | conditions | how to read | endpoint | result |
| --- | --- | --- | --- | --- | --- | --- | --- |
| PhoQ, residues 284 288 289 292 302 303 ALAMYF | PhoP, residues 12 14 15 18 19 VHSCL (Escherichia coli, UniProt P23836) | Sort-seq, refers to: YFP reporter | E. coli | PhoQ-PhoP variant library, together with: 10 µM Mg2+ | baseline: high Mg2+ state, higher = stronger signaling | fold induction | 1.77 |
